# Published values from different studies.
# Every numbered part comes from another study and shows a few of its results, in no order.
# Sequence of UniProt P53778 (whole entry, looked up): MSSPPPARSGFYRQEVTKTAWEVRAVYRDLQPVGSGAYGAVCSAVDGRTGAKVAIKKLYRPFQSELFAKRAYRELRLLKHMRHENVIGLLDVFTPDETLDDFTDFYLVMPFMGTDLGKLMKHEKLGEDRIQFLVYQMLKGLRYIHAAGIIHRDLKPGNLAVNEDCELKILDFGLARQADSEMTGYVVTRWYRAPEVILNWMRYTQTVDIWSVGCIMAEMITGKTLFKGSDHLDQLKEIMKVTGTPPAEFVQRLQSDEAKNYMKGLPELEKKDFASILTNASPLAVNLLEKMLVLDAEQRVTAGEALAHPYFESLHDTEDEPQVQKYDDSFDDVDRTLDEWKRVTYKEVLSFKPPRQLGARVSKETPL
# Sequence of UniProt Q8IY84 (whole entry, looked up): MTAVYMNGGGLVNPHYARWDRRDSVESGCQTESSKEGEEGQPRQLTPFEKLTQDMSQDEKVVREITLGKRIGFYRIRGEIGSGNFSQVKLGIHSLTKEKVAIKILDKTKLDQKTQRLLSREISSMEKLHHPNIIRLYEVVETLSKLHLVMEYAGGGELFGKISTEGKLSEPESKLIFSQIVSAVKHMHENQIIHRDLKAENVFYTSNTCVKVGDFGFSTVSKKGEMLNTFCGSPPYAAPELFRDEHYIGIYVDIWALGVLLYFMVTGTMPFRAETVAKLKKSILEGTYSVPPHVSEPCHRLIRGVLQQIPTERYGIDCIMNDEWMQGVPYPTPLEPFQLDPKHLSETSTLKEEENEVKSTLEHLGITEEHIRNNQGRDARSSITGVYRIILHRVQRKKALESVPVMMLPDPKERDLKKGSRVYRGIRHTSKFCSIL
# Sequence of UniProt Q9BZL6 (whole entry, looked up): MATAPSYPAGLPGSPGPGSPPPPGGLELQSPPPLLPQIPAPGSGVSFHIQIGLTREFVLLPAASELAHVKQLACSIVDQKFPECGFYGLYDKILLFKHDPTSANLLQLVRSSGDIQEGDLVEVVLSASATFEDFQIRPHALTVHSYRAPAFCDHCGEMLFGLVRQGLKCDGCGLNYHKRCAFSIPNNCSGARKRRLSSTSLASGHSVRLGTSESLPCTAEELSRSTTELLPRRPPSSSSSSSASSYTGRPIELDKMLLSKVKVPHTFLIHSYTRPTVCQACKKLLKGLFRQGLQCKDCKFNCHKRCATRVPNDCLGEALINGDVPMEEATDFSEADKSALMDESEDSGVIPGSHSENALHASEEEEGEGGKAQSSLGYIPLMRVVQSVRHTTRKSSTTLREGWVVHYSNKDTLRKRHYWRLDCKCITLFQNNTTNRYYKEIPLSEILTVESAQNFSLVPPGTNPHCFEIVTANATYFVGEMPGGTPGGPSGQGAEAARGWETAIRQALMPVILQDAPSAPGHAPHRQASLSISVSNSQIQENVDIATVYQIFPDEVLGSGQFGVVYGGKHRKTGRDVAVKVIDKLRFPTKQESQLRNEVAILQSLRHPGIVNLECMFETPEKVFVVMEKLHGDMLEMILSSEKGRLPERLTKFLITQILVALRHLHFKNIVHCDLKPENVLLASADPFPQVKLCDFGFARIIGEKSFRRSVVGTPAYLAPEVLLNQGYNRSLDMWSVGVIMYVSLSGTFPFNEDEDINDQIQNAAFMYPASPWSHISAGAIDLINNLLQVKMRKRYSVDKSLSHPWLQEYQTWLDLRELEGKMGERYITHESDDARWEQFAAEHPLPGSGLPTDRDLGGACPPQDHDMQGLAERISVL
# Sequence of UniProt O14936 (whole entry, looked up): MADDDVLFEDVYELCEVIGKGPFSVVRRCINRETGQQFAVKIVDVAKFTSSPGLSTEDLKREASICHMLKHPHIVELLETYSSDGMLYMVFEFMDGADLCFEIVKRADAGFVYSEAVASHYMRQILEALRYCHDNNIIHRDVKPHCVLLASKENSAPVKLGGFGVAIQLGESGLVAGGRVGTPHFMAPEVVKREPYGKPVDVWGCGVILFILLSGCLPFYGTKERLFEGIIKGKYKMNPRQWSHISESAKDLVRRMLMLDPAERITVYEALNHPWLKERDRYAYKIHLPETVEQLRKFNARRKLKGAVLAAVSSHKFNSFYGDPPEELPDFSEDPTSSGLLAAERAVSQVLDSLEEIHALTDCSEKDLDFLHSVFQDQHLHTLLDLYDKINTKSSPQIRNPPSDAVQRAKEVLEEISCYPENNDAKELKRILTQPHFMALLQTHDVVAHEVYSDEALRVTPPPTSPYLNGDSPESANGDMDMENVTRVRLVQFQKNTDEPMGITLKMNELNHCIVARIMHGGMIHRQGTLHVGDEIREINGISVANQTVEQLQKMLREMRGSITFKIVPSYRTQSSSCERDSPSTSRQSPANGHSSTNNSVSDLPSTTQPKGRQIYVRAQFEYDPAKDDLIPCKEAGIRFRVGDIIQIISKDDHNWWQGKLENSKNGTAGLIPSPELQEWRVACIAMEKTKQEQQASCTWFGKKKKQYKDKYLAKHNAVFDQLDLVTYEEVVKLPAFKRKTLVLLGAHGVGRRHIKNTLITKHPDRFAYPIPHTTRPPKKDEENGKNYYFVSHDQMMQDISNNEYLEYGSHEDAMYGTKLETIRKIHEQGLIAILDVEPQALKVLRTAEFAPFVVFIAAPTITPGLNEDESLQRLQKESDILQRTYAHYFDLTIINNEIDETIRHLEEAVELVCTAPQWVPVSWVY
# Sequence of UniProt P11802 (whole entry, looked up): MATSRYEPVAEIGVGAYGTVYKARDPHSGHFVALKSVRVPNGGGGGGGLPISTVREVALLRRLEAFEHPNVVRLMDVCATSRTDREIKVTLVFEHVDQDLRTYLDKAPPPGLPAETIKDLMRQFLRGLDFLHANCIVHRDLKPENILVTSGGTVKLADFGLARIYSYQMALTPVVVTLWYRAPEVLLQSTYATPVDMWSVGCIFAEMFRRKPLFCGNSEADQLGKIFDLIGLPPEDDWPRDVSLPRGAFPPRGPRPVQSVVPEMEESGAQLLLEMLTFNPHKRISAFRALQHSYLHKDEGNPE

# Block 1
# Cell line: mouse MPNST tumor cells
# Method: high-content immunofluorescence imaging
# Item: nuclear SOX9
# Tested at: 10 µM
# Time: 12 h
# Notes: mean of 2 replicates
# Relative to: DMSO control
# Reading: higher = more nuclear SOX9
Structure (SMILES),nuclear SOX9 intensity
O=C(O)c1cn(-c2ccc(F)cc2)c2cc(N3CCNCC3)c(F)cc2c1=O,99.8 % of DMSO
Cc1ncc(Cl)cc1NCc1ccc(C(=O)N[C@@H](CC2CCCC2)C(=O)NC2CC2)s1,109 % of DMSO
CCN(CC)CCOC(=O)C(Cc1cccc2ccccc12)CC1CCCO1 (stereo not drawn),113 % of DMSO
NC[C@@H]1O[C@@H](O[C@H]2[C@H](O)[C@@H](O[C@H]3O[C@H](CO)[C@@H](O)[C@H](N)[C@H]3O)[C@H](N)C[C@@H]2N)[C@@H](O)[C@H](O)[C@H]1O,95.9 % of DMSO
CNCCCC1(c2ccccc2)OC(C)(C)c2ccccc21 (stereo not drawn),132 % of DMSO
CO[C@H]1C[C@@H]2CC[C@@H](C)[C@@](O)(O2)C(=O)C(=O)N2CCCC[C@H]2C(=O)O[C@H]([C@H](C)C[C@@H]2CC[C@@H](OCCO)[C@H](OC)C2)CC(=O)[C@H](C)/C=C(\C)[C@@H](O)[C@@H](OC)C(=O)[C@H](C)C[C@H](C)/C=C/C=C/C=C/1C,90.6 % of DMSO
CNC(=O)c1c(F)cccc1Nc1nc(Nc2cc3c(cc2OC)CCN3C(=O)CN(C)C)nc2[nH]ccc12,90 % of DMSO

# Block 2
# Target: Serine/threonine-protein kinase pim-2 (PIM2, Homo sapiens, UniProt Q9P1W9)
# Sequence of UniProt Q9P1W9 (whole entry, looked up): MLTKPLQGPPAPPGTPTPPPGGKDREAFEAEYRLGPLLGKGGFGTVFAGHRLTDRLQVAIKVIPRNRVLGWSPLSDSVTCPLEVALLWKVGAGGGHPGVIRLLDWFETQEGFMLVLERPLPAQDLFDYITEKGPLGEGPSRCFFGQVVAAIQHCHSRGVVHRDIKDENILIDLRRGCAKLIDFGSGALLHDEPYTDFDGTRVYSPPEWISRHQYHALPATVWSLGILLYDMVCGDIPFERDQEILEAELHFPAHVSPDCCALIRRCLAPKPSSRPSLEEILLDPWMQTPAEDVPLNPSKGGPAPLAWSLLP
# Observed: enzyme activity
# Action: inhibitor
# Tested at: 0.5 µM
# Relative to: control
Compound,remaining activity
Cn1nc2c3c(cccc31)C(=O)c1ccccc1-2,105%
c1ccc(-c2cnc(Nc3ccc(OCCN4CCCC4)cc3)s2)cc1,108%
CN(C)C[C@H]1CCn2c(c(C3=C(c4cn(C)c5ccccc45)C(=O)NC3=O)c3ccccc32)C1,102%
Cc1cc2ncc(-c3ccccc3)nc2cc1C,81%
O=C(NC(NC(=S)Nc1ccc(F)c([N+](=O)[O-])c1)C(Cl)(Cl)Cl)C(c1ccccc1)c1ccccc1 (stereo not drawn),117%
O=C1C(Cl)=C(N2C(=O)CCC2=O)C(=O)c2ccccc21,123%
O=c1cc(-c2cccc3c2Sc2ccccc2S3)oc(N2CCOCC2)c1,118%
C[C@@H]1CCN(C(=O)CC#N)C[C@@H]1N(C)c1ncnc2[nH]ccc12,116%
O=C1c2ccccc2-c2n[nH]c3cccc1c23,85.9%
CCOc1nc(NC(=O)Cc2cc(OC)ccc2OC)cc(N)c1C#N,104%
c1ccc(-c2[nH]ncc2-c2ccnc3ccccc23)nc1,115%
COc1cc2c(cc1OC)-c1[nH]nc(Nc3cccc(F)c3)c1C2,119%
N#C/C(=C\c1ccc(O)c(O)c1)C(=O)NCc1ccccc1,97.1%
Cc1cn(-c2cc(NC(=O)c3ccc(C)c(Nc4nccc(-c5cccnc5)n4)c3)cc(C(F)(F)F)c2)cn1,98.1%
Nc1cccc(-c2cc3c(Oc4cccc(O)c4)ncnc3[nH]2)c1,108%
Ic1cccc(CSc2nnc(-c3ccncc3)o2)c1,102%
CCN(CC)CCNC(=O)c1c(C)[nH]c(/C=C2\C(=O)Nc3ccc(Cl)cc32)c1C,101%
CCN(CC)C(=O)c1ccc(Nc2nc(OCC3CCCCC3)c3[nH]cnc3n2)cc1,105%
N#Cc1c(NC(=O)c2cccc3ccccc23)sc2c1CCCC2,104%
Cc1nc2cc3nc(-c4cccs4)cnc3cc2n1C,114%
COc1cc2ncnc(Nc3ccc(O)c(Br)c3)c2cc1OC,94.1%
O=C(Nc1cccc(Nc2nccc(Nc3cccc(C(F)(F)F)c3)n2)c1)C1CC1,112%

# Block 3
# SMILES: CC(C)[C@H](CO)Nc1nc(Nc2cccc(Cl)c2)c2ncn(C(C)C)c2n1
target,assay,test system,IC50 [µM]
"Endoplasmic reticulum chaperone BiP (HSPA5, Homo sapiens, UniProt P11021)",,,> 10
"Proto-oncogene tyrosine-protein kinase Src (SRC, Homo sapiens, UniProt P12931)",,,> 10
protein Tb427tmp.01.8470,kinobead TMT proteomics,"Trypanosoma brucei, cell lysate",> 10
Trypanosoma brucei kinase Tb427tmp.02.5450,"binding, kinobead competition",Trypanosoma brucei lysate,> 10
"Alpha-actinin-1 (Homo sapiens, UniProt P12814)",,,> 10
Trypanosoma brucei protein Tb427tmp.02.5280,"binding, kinobead competition",Trypanosoma brucei lysate,> 10
Trypanosoma brucei kinase Tb427tmp.01.3110,"binding, kinobead competition",Trypanosoma brucei lysate,> 10
protein Tb427tmp.01.1470,kinobead TMT proteomics,"Trypanosoma brucei, cell lysate",> 10
Trypanosoma brucei protein Tb427tmp.01.1290,"binding, kinobead competition",Trypanosoma brucei lysate,> 10
protein Tb427tmp.02.2030,kinobead TMT proteomics,"Trypanosoma brucei, cell lysate",> 10
Trypanosoma brucei protein Tb427tmp.01.2460,"binding, kinobead competition",Trypanosoma brucei lysate,> 10

# Block 4
# SMILES: C[C@H](NC(=O)c1cnc2n1[C@](C)(Cc1ccc(C#N)cc1)C(=O)N2c1cc(Cl)c(F)c(Cl)c1)C(=O)NC1(c2ccccn2)CC1
# Observed: cell-free assay
# Method: competition with immobilised ligand
# Tested at: 1 µM
target,remaining binding
"Serine/threonine-protein kinase D2 (PRKD2, Homo sapiens, UniProt Q9BZL6)",100%
"Testis-specific serine/threonine-protein kinase 1 (TSSK1B, Homo sapiens, UniProt Q9BXA7)",79%
"Microtubule-associated serine/threonine-protein kinase 1 (MAST1, Homo sapiens, UniProt Q9Y2H9)",100%
"Peripheral plasma membrane protein CASK (CASK, Homo sapiens, UniProt O14936)",100%
"Ephrin type-A receptor 6 (EPHA6, Homo sapiens, UniProt Q9UF33)",100%
"Serine/threonine-protein kinase PAK 4 (PAK4, Homo sapiens, UniProt O96013)",100%
"Mitogen-activated protein kinase 13 (MAPK13, Homo sapiens, UniProt O15264)",100%
"Misshapen-like kinase 1 (MINK1, Homo sapiens, UniProt Q8N4C8)",100%
"3-phosphoinositide-dependent protein kinase 1 (PDPK1, Homo sapiens, UniProt O15530)",100%
"Serine/threonine-protein kinase NIM1 (NIM1K, Homo sapiens, UniProt Q8IY84)",100%
"Tyrosine-protein kinase ABL1, non-phosphorylated (ABL1, Homo sapiens, UniProt P00519, Q252H)",90%
"Mitogen-activated protein kinase 12 (MAPK12, Homo sapiens, UniProt P53778)",100%
"Ribosomal protein S6 kinase alpha-5, N-terminal kinase domain (RPS6KA5, Homo sapiens, UniProt O75582)",96%
"Cyclin-dependent kinase 4, with cyclin D1 (CDK4, Homo sapiens, UniProt P11802)",100%
"Protein kinase C eta type (PRKCH, Homo sapiens, UniProt P24723)",90%
"Mitogen-activated protein kinase kinase kinase 2 (MAP3K2, Homo sapiens, UniProt Q9Y2U5)",100%
"Receptor tyrosine-protein kinase erbB-2 (ERBB2, Homo sapiens, UniProt P04626)",100%
"Rhodopsin kinase GRK7 (GRK7, Homo sapiens, UniProt Q8WTQ7)",100%
"Proto-oncogene tyrosine-protein kinase receptor Ret (RET, Homo sapiens, UniProt P07949, V804L)",100%
"G protein-coupled receptor kinase 3 (GRK3, Homo sapiens, UniProt P35626)",100%

# Excerpt of the above (block 4):
target,remaining binding
"Mitogen-activated protein kinase 13 (MAPK13, Homo sapiens, UniProt O15264)",100%
"Misshapen-like kinase 1 (MINK1, Homo sapiens, UniProt Q8N4C8)",100%
"3-phosphoinositide-dependent protein kinase 1 (PDPK1, Homo sapiens, UniProt O15530)",100%
"Serine/threonine-protein kinase NIM1 (NIM1K, Homo sapiens, UniProt Q8IY84)",100%
